Published values from different studies.
Protocols differ between the studies behind these lines.
Cell line: MOLM-13

With `O=C1CC[C@H](N2Cc3cc(-c4ccn5nccc5n4)ccc3C2=O)C(=O)N1` the IC50 was greater than 100 nM (cell growth, CellTiter luminescence; 72 h).
For `O=c1sn(Cc2ccccc2)c(=O)n1C1CC1`, the IC50 was 9500 nM (cell growth or viability; 72 h).
The GI50 of `CC[C@H](C)[C@@H]([C@@H](CC(=O)N1C[C@@H](N=[N+]=[N-])C[C@H]1[C@H](OC)[C@@H](C)C(=O)N[C@@H](Cc1ccccc1)C(=O)OC)OC)N(C)C(=O)[C@@H](NC(=O)[C@H](C(C)C)N(C)C)[C@H](C)N=[N+]=[N-]` is reported as 0.057 nM (cell growth or viability, resazurin).
`CC1(C)CCN(Cc2ccc(C(=O)NC[C@]3(O)CCCN(c4cc(NCc5ccccc5)ncn4)C3)c(O)c2)CC1`: “half-life of m6A reduction” 1.8 h (item: m6A in mRNA; 40 µM, 1 to 16 h).
For `C/C(=N\NC(=O)c1cccc(S(=O)(=O)N2CCOCC2)c1)c1cc(Cl)ccc1O`, the EC50 was 203 nM (cell growth or viability, resazurin; 96 h).
`CCNC(=O)Nc1ccc(S(=O)(=O)Oc2ccccc2CC)cc1` gave an IC50 of 700 nM (cell growth or viability, MTT; 48 h).
With `Cc1nn2ccc(-c3ccc4c(c3)CN([C@H]3CCC(=O)NC3=O)C4=O)nc2c1Cl` the IC50 was 8 nM (cell growth, CellTiter luminescence; 72 h).
For `Cc1cc(CN2CCN(c3c(Br)cnc4[nH]c(-c5ccc(N6CCN(C)CC6)cc5)nc34)CC2)no1`, the IC50 was 23 nM (cell growth or viability, MTS; 72 h).
For `COc1ccc(Nc2ccn3ncc(-c4ccc5c(c4)CN([C@H]4CCC(=O)NC4=O)C5=O)c3n2)cc1Cl`, the IC50 was greater than 100 nM (cell growth, CellTiter luminescence; 72 h).
For `CC[C@H](C)[C@H]1[C@H](OC)CC(=O)N2C[C@H](C[C@H]2[C@H](OC)[C@@H](C)C(=O)N[C@@H](Cc2ccccc2)C(=O)OC)NC(=O)CCCC(=O)N[C@@H](C)[C@H](NC(=O)[C@@H](NC)C(C)C)C(=O)N1C`, the GI50 was greater than 1000 nM (cell growth or viability, resazurin).

Excerpt of the above:
For `Cc1cc(CN2CCN(c3c(Br)cnc4[nH]c(-c5ccc(N6CCN(C)CC6)cc5)nc34)CC2)no1`, the IC50 was 23 nM (cell growth or viability, MTS; 72 h).
